Results pooled from the literature.
Every numbered part comes from another study and shows a few of its results, in no order. “And” joins repeats or separate records; there may be more than shown.
Chain of UniProt P23443 (whole entry, looked up): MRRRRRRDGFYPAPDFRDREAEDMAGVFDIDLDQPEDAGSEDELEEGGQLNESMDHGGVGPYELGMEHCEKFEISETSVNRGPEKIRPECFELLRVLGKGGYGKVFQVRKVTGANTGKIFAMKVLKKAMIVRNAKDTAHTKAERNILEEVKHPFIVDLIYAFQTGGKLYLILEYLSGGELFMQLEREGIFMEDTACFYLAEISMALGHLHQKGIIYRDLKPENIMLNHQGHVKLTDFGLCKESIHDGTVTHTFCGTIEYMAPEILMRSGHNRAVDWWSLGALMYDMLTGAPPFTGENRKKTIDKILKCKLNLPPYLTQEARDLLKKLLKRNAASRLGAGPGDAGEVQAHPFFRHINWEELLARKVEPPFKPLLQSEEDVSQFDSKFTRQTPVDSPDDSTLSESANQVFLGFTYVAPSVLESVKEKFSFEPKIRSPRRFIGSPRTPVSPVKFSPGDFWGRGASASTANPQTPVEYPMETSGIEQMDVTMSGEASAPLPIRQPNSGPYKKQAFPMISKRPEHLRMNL
Chain of UniProt Q13177 (whole entry, looked up): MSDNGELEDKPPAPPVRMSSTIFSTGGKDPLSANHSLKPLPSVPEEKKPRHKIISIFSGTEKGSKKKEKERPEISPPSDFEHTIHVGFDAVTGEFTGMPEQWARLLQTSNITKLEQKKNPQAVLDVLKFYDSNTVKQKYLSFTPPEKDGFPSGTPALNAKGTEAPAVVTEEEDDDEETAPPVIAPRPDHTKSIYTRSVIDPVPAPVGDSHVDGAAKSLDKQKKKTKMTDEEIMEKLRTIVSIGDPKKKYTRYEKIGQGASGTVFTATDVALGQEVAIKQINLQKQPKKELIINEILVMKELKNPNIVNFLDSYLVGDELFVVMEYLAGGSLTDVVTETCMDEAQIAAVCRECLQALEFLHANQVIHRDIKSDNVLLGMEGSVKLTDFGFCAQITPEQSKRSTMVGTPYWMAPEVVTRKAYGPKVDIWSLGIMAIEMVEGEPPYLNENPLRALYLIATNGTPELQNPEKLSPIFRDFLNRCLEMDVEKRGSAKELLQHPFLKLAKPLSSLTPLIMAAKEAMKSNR
Chain of UniProt Q96GD4 (whole entry, looked up): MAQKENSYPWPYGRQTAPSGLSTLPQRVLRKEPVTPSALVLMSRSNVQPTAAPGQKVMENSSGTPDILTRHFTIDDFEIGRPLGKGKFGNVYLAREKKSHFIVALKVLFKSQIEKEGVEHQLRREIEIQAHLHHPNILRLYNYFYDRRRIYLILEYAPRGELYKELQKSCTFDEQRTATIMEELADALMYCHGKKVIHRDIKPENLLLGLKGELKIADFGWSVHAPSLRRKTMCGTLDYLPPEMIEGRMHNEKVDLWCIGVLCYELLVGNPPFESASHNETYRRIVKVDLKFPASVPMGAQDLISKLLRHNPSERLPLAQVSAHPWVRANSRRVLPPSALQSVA

Sample 1
Structure (SMILES): C=C(CN)COc1cccc(Cn2c(=S)[nH]c(=O)c3[nH]cnc32)c1
MPO: Myeloperoxidase (MPO, Homo sapiens, UniProt P05164)
Chain of UniProt P05164 (whole entry, looked up): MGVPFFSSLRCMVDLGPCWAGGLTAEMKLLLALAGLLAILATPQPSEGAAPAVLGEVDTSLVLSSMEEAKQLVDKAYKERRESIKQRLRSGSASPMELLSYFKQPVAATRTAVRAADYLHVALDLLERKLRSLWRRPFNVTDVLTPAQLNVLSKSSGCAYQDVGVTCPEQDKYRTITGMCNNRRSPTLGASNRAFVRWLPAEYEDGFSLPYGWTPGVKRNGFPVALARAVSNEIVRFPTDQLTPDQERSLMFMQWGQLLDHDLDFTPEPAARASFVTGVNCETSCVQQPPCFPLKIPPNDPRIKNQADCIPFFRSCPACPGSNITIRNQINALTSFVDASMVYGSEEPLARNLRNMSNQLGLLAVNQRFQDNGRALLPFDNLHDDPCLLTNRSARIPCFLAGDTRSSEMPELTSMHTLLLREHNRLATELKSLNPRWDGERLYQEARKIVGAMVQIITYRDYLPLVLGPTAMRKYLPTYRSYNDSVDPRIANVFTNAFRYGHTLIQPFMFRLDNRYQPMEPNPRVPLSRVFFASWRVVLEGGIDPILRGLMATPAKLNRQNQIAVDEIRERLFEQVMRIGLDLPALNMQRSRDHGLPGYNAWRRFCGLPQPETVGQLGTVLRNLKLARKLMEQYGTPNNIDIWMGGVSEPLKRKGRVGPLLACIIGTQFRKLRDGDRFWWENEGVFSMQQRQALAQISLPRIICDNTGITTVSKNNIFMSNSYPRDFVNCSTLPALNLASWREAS
AOC3: Amine oxidase [copper-containing] 3 (AOC3, Homo sapiens, UniProt Q16853)
Chain of UniProt Q16853 (whole entry, looked up): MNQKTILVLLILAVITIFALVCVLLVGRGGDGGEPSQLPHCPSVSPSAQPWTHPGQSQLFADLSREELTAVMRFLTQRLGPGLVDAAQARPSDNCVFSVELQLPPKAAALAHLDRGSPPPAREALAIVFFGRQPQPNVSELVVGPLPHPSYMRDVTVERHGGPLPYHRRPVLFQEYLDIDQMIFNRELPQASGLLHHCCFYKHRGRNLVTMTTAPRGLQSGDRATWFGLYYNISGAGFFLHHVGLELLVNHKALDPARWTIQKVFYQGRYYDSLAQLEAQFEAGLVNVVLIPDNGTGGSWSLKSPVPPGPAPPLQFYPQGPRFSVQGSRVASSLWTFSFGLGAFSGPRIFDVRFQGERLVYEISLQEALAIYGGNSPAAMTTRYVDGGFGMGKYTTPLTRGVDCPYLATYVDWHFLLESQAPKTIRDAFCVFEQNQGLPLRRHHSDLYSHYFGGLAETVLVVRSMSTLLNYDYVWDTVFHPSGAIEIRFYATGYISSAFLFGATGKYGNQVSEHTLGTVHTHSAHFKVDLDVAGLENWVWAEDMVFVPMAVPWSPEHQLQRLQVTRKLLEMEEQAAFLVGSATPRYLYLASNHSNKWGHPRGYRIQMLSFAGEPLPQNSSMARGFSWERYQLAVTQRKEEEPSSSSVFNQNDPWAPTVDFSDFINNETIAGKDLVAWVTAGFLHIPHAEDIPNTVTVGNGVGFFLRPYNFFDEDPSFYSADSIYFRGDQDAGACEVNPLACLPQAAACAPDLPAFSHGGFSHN
target | test | setting | inhibition
MPO | enzyme activity | 0.0412 µM | 73.7% and 80.1%
MPO | enzyme activity, inhibitor, fluorescence | 200 pM | 2.07%
AOC3 | H2O2 production, inhibitor, Amplex Red | 30 µM | 90.1 % Inhibition
AOC3 | enzyme activity, Amplex Red H2O2 production | 3.333 µM, mean value | 75.7%
AOC3 | H2O2 production, inhibitor, Amplex Red | 0.0137 µM | -2.51 % Inhibition and 20.6 % Inhibition
AOC3 | H2O2 production, inhibitor, Amplex Red | 10 µM | 86 % Inhibition
AOC3 | enzyme activity, Amplex Red H2O2 production | 0.3704 µM | 27.5%
AOC3 | enzyme activity, Amplex Red H2O2 production | 10 µM, mean value | 89.8%
AOC3 | enzyme activity, Amplex Red H2O2 production | 0.3704 µM, mean value | 22%

Sample 2 — effect on: thermal unfolding; method: differential scanning fluorimetry; concentration: 5.5 µM; reading: higher = more unfolded
Compound: C[C@@H]1CN(c2ccc(-c3cc(C(=O)NCCOCCOCCOCCOCCOCCOCCNC(=O)/C=C/c4[nH]cc(C(=O)N[C@@H](CC(N)=O)c5ccc(F)c(Cl)c5)c4-c4ccc(Cl)cc4F)ccc3F)cc2NC(=O)c2ccc(F)cc2C(F)(F)F)C[C@H](C)N1C
WDR5: WD repeat-containing protein 5 (WDR5, Homo sapiens, UniProt P61964)
DCAF1: DDB1- and CUL4-associated factor 1 (DCAF1, Homo sapiens, UniProt Q9Y4B6)
Chain of UniProt Q9Y4B6 (whole entry, looked up): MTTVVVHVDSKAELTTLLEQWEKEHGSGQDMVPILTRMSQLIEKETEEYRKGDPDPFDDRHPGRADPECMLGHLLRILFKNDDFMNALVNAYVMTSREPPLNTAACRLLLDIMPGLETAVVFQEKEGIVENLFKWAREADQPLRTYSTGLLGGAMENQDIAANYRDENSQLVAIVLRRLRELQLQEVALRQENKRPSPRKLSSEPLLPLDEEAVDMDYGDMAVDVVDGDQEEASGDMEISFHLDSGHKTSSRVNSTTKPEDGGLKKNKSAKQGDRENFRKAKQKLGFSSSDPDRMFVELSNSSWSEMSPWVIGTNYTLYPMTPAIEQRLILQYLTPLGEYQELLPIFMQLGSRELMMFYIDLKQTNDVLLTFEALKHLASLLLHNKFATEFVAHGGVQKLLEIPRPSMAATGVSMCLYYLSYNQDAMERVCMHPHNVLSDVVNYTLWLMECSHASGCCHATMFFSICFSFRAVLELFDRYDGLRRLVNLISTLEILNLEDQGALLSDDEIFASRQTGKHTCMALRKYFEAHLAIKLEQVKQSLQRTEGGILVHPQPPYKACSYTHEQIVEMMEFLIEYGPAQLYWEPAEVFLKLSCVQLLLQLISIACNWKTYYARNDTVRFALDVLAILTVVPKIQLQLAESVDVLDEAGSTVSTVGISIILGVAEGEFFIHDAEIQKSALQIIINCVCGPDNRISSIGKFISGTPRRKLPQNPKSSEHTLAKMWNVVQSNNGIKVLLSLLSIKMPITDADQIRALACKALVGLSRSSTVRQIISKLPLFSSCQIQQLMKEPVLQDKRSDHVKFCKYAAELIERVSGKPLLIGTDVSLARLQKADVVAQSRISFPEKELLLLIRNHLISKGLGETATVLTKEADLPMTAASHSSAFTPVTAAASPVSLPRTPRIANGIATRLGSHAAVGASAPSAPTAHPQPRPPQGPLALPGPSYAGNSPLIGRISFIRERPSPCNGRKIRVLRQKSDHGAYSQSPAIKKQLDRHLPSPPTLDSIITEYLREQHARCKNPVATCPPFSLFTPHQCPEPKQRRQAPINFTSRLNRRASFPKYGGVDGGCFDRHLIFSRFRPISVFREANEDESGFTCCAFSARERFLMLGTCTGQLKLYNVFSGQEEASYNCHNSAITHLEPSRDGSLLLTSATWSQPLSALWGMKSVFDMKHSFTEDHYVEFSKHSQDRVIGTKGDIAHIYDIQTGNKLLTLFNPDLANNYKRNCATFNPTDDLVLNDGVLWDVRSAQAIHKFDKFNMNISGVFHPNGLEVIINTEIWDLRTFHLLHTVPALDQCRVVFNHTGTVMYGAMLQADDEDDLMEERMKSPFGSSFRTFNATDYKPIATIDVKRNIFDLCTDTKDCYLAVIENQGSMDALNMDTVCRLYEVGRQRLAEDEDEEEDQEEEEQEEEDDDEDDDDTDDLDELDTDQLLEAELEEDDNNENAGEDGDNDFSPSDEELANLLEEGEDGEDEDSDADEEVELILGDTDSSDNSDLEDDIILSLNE
target | setting | SYPRO Orange fluorescence [a.u.]
WDR5 | 40.8 °C | 14200
DCAF1 | 51 °C | 19000
WDR5 | 32.4 °C | 13800
WDR5 | 54.01 °C | 16900
DCAF1 | 28.2 °C | 8000
DCAF1 | 88.61 °C | 33500
WDR5 | 87.01 °C | 59300

Sample 3 — effect on: kinase activity
SMILES: CNc1ncc2cc(-c3cc(OC)cc(OC)c3Cl)c(=O)n(CCc3ccc(NC(=O)C(C#N)=CC(C)(C)N4CCOCC4)cc3)c2n1
FGR: Tyrosine-protein kinase Fgr (FGR, Homo sapiens, UniProt P09769)
Chain of UniProt P09769 (whole entry, looked up): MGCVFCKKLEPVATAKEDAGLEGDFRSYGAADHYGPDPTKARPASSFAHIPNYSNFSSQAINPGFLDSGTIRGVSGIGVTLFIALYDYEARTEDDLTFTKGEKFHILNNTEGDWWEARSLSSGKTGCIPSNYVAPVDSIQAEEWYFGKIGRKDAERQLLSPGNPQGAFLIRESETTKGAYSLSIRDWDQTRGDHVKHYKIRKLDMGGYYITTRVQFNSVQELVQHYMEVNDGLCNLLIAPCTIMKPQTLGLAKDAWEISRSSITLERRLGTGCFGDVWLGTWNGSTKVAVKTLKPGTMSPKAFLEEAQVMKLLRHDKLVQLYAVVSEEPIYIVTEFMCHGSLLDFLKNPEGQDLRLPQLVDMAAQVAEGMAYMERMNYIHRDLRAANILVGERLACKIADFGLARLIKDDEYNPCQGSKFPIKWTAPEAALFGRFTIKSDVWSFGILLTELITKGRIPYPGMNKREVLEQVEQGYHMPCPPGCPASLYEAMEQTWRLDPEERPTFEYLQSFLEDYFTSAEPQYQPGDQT
target | setting | inhibition
Aurora kinase B (AURKB, Homo sapiens, UniProt Q96GD4) | 1 µM | 1%
Serine/threonine-protein kinase BRSK2 (BRSK2, Homo sapiens, UniProt Q8IWQ3) | 0.1 µM | -2%
Inhibitor of nuclear factor kappa-B kinase subunit epsilon (IKBKE, Homo sapiens, UniProt Q14164) | 1 µM | 1%
Ribosomal protein S6 kinase beta-1 (RPS6KB1, Homo sapiens, UniProt P23443) | 0.1 µM | -1%
Tyrosine-protein kinase BTK (BTK, Homo sapiens, UniProt Q06187) | 0.1 µM | 6%
FGR | 1 µM | 28%
Mitogen-activated protein kinase 13 (MAPK13, Homo sapiens, UniProt O15264) | 1 µM | 2%
Tyrosine-protein kinase Yes (YES1, Homo sapiens, UniProt P07947) | 1 µM | 18%
Dual specificity tyrosine-phosphorylation-regulated kinase 1B (DYRK1B, Homo sapiens, UniProt Q9Y463) | 0.1 µM | 6%
Tyrosine-protein kinase Srms (SRMS, Homo sapiens, UniProt Q9H3Y6) | 1 µM | -1%
Ribosomal protein S6 kinase alpha-4 (RPS6KA4, Homo sapiens, UniProt O75676) | 1 µM | 0%
Serine/threonine-protein kinase BRSK1 (BRSK1, Homo sapiens, UniProt Q8TDC3) | 0.1 µM | 1%
Ribosomal protein S6 kinase alpha-5 (RPS6KA5, Homo sapiens, UniProt O75582) | 1 µM | 1%
Protein-tyrosine kinase 6 (PTK6, Homo sapiens, UniProt Q13882) | 0.1 µM | -8%
FGR | 0.1 µM | 2%

Sample 4 — concentration: 1 µM
SMILES: CC[C@@]1(c2cccc(C(F)(F)F)c2)C2=C(Nc3n[nH]cc31)[C@H](F)C(C)(C)CC2=O (single isomer, unassigned)
target | test | how to read | remaining binding
Proto-oncogene tyrosine-protein kinase receptor Ret (RET, Homo sapiens, UniProt P07949) | kinase binding, KINOMEscan | reference: DMSO control | 86%
Serine/threonine-protein kinase PAK 2 (PAK2, Homo sapiens, UniProt Q13177) | kinase binding, KINOMEscan | reference: DMSO control | 100%
Tyrosine-protein kinase CSK (CSK, Homo sapiens, UniProt P41240) | binding, competition with immobilised ligand |  | 100%
Calcium/calmodulin-dependent protein kinase type II subunit alpha (CAMK2A, Homo sapiens, UniProt Q9UQM7) | binding, competition with immobilised ligand |  | 88%
Tyrosine-protein kinase Mer (MERTK, Homo sapiens, UniProt Q12866) | kinase binding, KINOMEscan | reference: DMSO control | 100%
Atypical kinase COQ8B, mitochondrial (COQ8B, Homo sapiens, UniProt Q96D53) | kinase binding, KINOMEscan | reference: DMSO control | 100%
Serine/threonine-protein kinase 17B (STK17B, Homo sapiens, UniProt O94768) | kinase binding, KINOMEscan | reference: DMSO control | 99%
Tyrosine-protein kinase Fgr (FGR, Homo sapiens, UniProt P09769) | binding, competition with immobilised ligand |  | 100%
MAP/microtubule affinity-regulating kinase 3 (MARK3, Homo sapiens, UniProt P27448) | kinase binding, KINOMEscan | reference: DMSO control | 91%
Wee1-like protein kinase 2 (WEE2, Homo sapiens, UniProt P0C1S8) | binding, competition with immobilised ligand |  | 100%
